Results from different studies.
Protocols differ between the studies behind these lines. Values joined by “and” are separate records of one study, mostly repeats; a detail may differ.
UniProt P20813, sequence (whole entry, looked up): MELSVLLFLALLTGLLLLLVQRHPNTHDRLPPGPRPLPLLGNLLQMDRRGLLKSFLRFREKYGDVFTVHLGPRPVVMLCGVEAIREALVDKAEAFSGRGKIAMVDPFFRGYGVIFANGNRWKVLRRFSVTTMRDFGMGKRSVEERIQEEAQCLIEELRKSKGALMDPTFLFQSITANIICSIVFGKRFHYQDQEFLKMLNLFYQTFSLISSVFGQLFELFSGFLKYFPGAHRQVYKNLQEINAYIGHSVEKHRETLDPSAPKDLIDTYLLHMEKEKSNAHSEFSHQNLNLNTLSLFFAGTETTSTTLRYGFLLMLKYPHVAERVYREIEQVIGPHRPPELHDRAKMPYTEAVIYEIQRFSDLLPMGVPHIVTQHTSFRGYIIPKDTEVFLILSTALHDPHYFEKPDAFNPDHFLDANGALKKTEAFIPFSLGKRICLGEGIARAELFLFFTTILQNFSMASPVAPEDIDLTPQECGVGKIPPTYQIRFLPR

SMILES	target or system	test	system	setting	how to read	measurement	value
C=C[C@]1(C)C[C@@H](OC(=O)CSc2ccc(NC(=O)c3ccco3)cc2)[C@]2(C)[C@H](C)CC[C@]3(CCC(=O)[C@H]32)[C@@H](C)[C@@H]1O			M. gallisepticum-infected chickens, plasma	intramuscular, 80 mg/kg single dose		Cmax	9530 ng/mL
CCCCCCCOc1ccc(CC[C@](N)(CO)COP(=O)(O)O)cc1C(F)(F)F			healthy male humans, plasma	oral, 0.5 mg amiselimod, day 1, mean		Cmax	1.19 ng/mL
CC(C)C[C@H](NC(=O)[C@H](CCCN)NC(=O)CNC(=O)[C@@H](NC(=O)[C@H](C)NC(=O)[C@@H]1CSCSC[C@H](NC(=O)CC[C@H](N)C(=O)O)C(=O)N[C@@H](CC(N)=O)C(=O)N[C@@H]([C@@H](C)O)C(=O)N[C@@H](C)C(=O)N[C@@H]([C@@H](C)O)C(=O)N1)[C@@H](C)O)C(=O)N[C@@H](C)C(=O)N[C@@H](CCC(=O)O)C(=O)N[C@@](C)(Cc1ccccc1)C(=O)N[C@@H](CC(C)C)C(=O)N[C@H](C(=O)N[C@@H](CCCNC(=N)N)C(=O)N[C@@H](CO)C(=O)N[C@@H](CO)C(=O)N[C@@H](CC(N)=O)C(=O)N(C)[C@@H](CC(N)=O)C(=O)N[C@@H](Cc1ccccc1)C(=O)NCC(=O)N1CCC[C@H]1C(=O)N[C@@H](CCCCNC(=O)CC[C@H](NC(=O)CC[C@H](NC(=O)CCCCCCCCCCCCCCCCCCC(=O)O)C(=O)O)C(=O)O)C(=O)N[C@@H](CC(C)C)C(=O)N1CCC[C@H]1C(=O)N1CCC[C@H]1C(=O)N[C@H](C(=O)N[C@@H](CCC(=O)O)C(=O)N[C@H](C(=O)NCC(=O)N[C@@H](CO)C(=O)N[C@@H](CC(N)=O)C(=O)N[C@H](C(=O)N[C@@H](Cc1ccc(O)cc1)C(N)=O)[C@@H](C)O)C(C)C)[C@@H](C)O)C(C)C			healthy human, plasma	subcutaneous, 0.12 mg single dose, geometric LS mean		Cmax	11.9 ng/mL
N=C(N)NCCC[C@@H]1NC(=O)[C@H](CO)NC(=O)[C@@H](NC(=O)[C@H](CO)NC(=O)[C@H](CO)NC(=O)[C@H](Cc2c[nH]c3ccccc23)NC(=O)CNC(=O)[C@H](CO)NC(=O)[C@@H](N)Cc2c[nH]c3ccccc23)CSSC[C@@H](C(=O)NCC(=O)O)NC(=O)[C@H](CO)NC1=O			patients, plasma	intravenous, 5 mg/kg, thrice weekly, geometric mean		Cmax	2220 ng/mL
CNC(=O)C1CCCN(C(=O)C2CC3CCC2N3C(=O)[C@@H]2C[C@@H](O)CN2C(=O)NCc2cccc(Cl)c2F)C1 (mixture of isomers)	Cytochrome P450 2B6 (CYP2B6, Homo sapiens, UniProt P20813)	preincubation with NADPH	human	0.0686 µM	relative to: negative control	remaining activity	106% and 97.9% and 102%
CCCC[C@H](NC(C)=O)C(=O)N[C@@H](CO)C(=O)N[C@H](C(=O)N1CCC[C@H]1C(=O)N[C@]1(C)CCCCCCC=CCCC[C@@](C)(C(=O)N[C@@H](Cc2ccccc2)C(=O)N[C@@H](CCCCN)C(=O)N[C@@H](CCCNC(=N)N)C(=O)N[C@@H](CC(C)C)C(=O)N[C@@H](CCC(N)=O)C(N)=O)NC(=O)[C@H](CCCNC(=N)N)NC(=O)[C@H](CCCC)NC(=O)[C@H](CC(C)C)NC(=O)[C@H](CCCNC(=N)N)NC(=O)[C@H](CCCNC(=N)N)NC(=O)[C@H](CCCNC(=N)N)NC1=O)[C@@H](C)O	proteinase K	LC-MS		25 µM, 369.1 min, pH 7.4		remaining peptide	55.8% and 52.4%
COC1CN([C@H]2CC[C@H]([C@@]3(C)Oc4c(Cl)cc(C(=O)NCc5c(SC)cc(C)[nH]c5=O)c(C)c4O3)CC2)C1			female CB17 SCID mice, KARPAS-422 xenograft, plasma	25 mg/kg, day 1		Cmax	1090 ng/mL
Cc1ncsc1-c1ccc(C(C)NC(=O)C2CC(O)CN2C(=O)C(NC(=O)CCCCCCCCCCN2CCCC(Nc3ncc(Cl)c(Nc4ccccc4S(=O)(=O)C(C)C)n3)C2)C(C)(C)C)cc1 (stereo not drawn)	22Rv1	RNA-seq, measured: ZKSCAN4 mRNA		concentration not given	relative to: DMSO	log2 fold change	-1.52
Cc1cc(C)nc(NC(=S)N2CCN(Cc3ccc(C(F)(F)F)cc3)CC2)c1			plasma	intraperitoneal, 30 mg/kg		Cmax	7980 ng/mL
OCCCN1CC[C@@H]2C[C@H]1c1cc(-c3ccc(C(F)(F)F)cc3)ccc12			brain	ip, concentration not given		Cmax	10900 ng/mL
COCC1CN(C2CCN(c3cc(OC)c(Nc4ncc(Br)c(Nc5ccc6c(c5P(C)(C)=O)OCCO6)n4)cc3C)CC2)C1			EGFR-mutant NSCLC patients, plasma	oral, 240 mg single dose, geometric mean		Cmax	1630 ng/mL
CN1CCCNC(=O)c2cccc(c2)C(=O)NCCCN(C)CCCNc2cccc3c2C(=O)c2cccc(c2C3=O)NCCC1	mouse bone marrow cells	CCK-8		5 µM, 48 h	relative to: untreated	viability	50.5%
